Assay results collected from several papers.
Every numbered part comes from another study and shows a few of its results, in no order.

Study 1
Target: Sal-like protein 4, full length isoform B (SALL4, Homo sapiens, UniProt Q9UJQ4-2, residues 1-616)
Technique: universal PBM
Form: double-stranded DNA, one strand shown
Medium: in vitro
Tested at: not given
Notes: 8-mer, flanks averaged, mean of replicates
Direction: higher = stronger binding
Residues (chain): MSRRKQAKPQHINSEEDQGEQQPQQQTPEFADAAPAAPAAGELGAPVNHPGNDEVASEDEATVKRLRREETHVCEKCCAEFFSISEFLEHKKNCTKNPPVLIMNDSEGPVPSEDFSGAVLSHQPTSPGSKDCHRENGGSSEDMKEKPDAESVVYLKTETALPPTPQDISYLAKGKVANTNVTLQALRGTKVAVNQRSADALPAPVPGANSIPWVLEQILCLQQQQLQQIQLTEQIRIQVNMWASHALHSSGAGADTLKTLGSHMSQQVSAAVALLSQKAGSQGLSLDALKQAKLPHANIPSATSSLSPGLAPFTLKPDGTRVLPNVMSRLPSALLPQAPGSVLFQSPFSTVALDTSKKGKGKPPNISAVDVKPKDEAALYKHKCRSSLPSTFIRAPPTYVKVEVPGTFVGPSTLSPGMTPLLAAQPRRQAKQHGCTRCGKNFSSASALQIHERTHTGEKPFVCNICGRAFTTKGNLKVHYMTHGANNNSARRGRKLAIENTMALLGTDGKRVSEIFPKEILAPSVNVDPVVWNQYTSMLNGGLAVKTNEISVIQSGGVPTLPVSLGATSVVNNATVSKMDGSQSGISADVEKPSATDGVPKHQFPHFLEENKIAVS
With `AAAGGTGT` the E-score was -0.0691.
`CGGCAGGC` has an E-score of -0.295.
`AAGACGAG` has an E-score of -0.146.
`CAAAGGGC` gave an E-score of -0.295.
With `GGATAAAC` the E-score was 0.144.
For `ACCGCTAA`, the E-score was 0.116.
`CGAGGATA` gave an E-score of -0.0636.
The E-score of `CAGATGAG` is reported as 0.0671.
For `ACCATTGG`, the E-score was -0.132.

Study 2
Target: Ras GTPase-activating protein-binding protein 1, full length (G3BP1, Homo sapiens, UniProt Q13283)
UniProt Q13283, sequence (whole entry, looked up): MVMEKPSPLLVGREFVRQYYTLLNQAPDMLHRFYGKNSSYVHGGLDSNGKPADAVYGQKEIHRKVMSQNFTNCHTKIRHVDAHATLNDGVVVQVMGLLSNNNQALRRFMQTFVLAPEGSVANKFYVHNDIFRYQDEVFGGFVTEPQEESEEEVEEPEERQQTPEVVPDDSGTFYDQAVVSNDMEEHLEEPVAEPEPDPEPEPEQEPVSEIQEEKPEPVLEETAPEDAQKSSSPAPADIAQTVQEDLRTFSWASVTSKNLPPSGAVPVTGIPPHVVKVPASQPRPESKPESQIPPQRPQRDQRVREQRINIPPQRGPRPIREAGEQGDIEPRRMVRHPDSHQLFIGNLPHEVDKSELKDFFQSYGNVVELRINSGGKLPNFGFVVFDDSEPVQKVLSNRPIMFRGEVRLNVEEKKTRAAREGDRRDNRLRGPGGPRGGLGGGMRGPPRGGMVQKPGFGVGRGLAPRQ
Technique: RNA Bind-n-Seq
Form: RNA
Medium: in vitro
Tested at: 200 nM
Notes: whole 134-nt RNA, ends assumed
Together with: 150 mM KCl
Baseline: input library
Direction: higher = stronger binding
Constant ends, left off below: GGGAGUUCUACAGUCCGACGAUC … UGGAAUUCUCGGGUGUCAAGG
The log2 enrichment of `ACCAUGCAGGUGGGCAUCUUUGGGAAGUGGGGCAAGGGGGGGAUAGGGAGGGGGGUAACACUUAAAGAACAGGUGGUCCCAGGUCGUUUC` is reported as 1.45.
The log2 enrichment of `UAACUUUAGAGGAGGAUCUGAUGGAUAUGGUAGUGGACGUGGAUUUGGGGAUGGCUAUAAUGGGUAUGGAGGAGGACCUGGAGGUGGCAA` is reported as 0.38.
For `CUGUGCUACACAUCGUAUGUACCGAAUCGGAAAAAAAGGGGAAAAAAAGGGAAAAAAAGGGGAAAGUAUUAUGUUACGCCGUUCGGAUCU`, the log2 enrichment was -0.757.
For `UCCUGUGCUACACAUCGUAUGUACCGAAUCGGUUUUUUUGGAAAAAAAGGUUUUUUUGGAAAGUAUUAUGUUACGCCGUUCGGAUCUGCA`, the log2 enrichment was -1.02.
With `UCCUGUGCUACACAUCGUAUGUACCGAAUCGGGAAAAAAAGGGUUUUUGGGAAAAAGGGAAAGUAUUAUGUUACGCCGUUCGGAUCUGCA` the log2 enrichment was -0.603.
For `UCAAGUCCUGUGCUACACAUCGUAUGUACCGAAUCGGUUUGGAAAAAAAGGAGGAAAGUAUUAUGUUACGCCGUUCGGAUCUGCACUUCC`, the log2 enrichment was -0.578.
The log2 enrichment of `UGCUCUUCACCAAGGAGGACGAGCCUGGCCGCUGCGACGUCCUGAGGAACCCCCUCUACCUCCAGAGUGUGAAGCUGCAGGAAGGUAAGC` is reported as 0.203.
`AGUCCUGUGCUACACAUCGUAUGUACCGAAUCGGGUUUGGGUUUGGGUUUUUUUGGGAAAGUAUUAUGUUACGCCGUUCGGAUCUGCACU` gave a log2 enrichment of -0.168.
`GCAGGAAGUAAAAACUAAUGGAAAUGCUUCGGAUAGUGGCAGGGGUGGGGGUUGCUAAGGAAAGGGUGGGAUGGGAGUGGGUAAAGAGUU` gave a log2 enrichment of 1.15.

Study 3
Target: Histone acetyltransferase KAT6A, winged helix 1, GST fusion (KAT6A, Homo sapiens, UniProt Q92794, residues 1-85)
Technique: protein binding microarray
Form: double-stranded DNA, one strand shown
Medium: in vitro
Tested at: not given
Notes: 8-mer, flanks averaged, mean of 2 arrays, mostly near background
Baseline: not given
Direction: higher = stronger binding
Target sequence (chain): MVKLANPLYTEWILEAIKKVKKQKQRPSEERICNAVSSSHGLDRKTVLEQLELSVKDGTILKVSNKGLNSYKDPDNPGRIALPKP
For `CCGCAAAC`, the E-score was 0.0516.
`ACTAAGCA` has an E-score of -0.0308.
`ACCAAGAA` gave an E-score of -0.214.
`GGCGTTAA` has an E-score of 0.224.
For `ACGCAGGC`, the E-score was 0.175.
For `CAGTATCC`, the E-score was -0.0337.

Mixed results
For `PhoQ, residues 284 288 289 292 302 303 ASVMEA`, the fold induction was 6.88 (PhoP, residues 12 14 15 18 19 QQAYL (Escherichia coli, UniProt P23836); Sort-seq, item: YFP reporter; E. coli; PhoQ-PhoP variant library, together with: 10 µM Mg2+; baseline: high Mg2+ state, higher = stronger signaling).

A few entries again (study 1):
`CAAAGGGC` gave an E-score of -0.295.
`AAGACGAG` has an E-score of -0.146.
